Earlier results as cited in several papers.
Each numbered part shows a few of the values that one paper quotes.

Series 1 — Substance: omiganan
The MIC was 6.3 µM (Bacillus subtilis; KCTC 3068; literature value).
The MIC was 12.5 µM (Escherichia coli; ATCC 25922; literature value).
Enterobacter sp.; KCTC 2625 — MIC: under 3.1 µM.
The MIC was 25 µM (Klebsiella pneumoniae; ATCC 700603; literature value).
The MIC was 12.5 µM (Acinetobacter baumannii; ATCC 19606; literature value).

Single results of other studies — effect on: binding
B1: CCL4; sequence looked up; chain APMGSDPPTACCFSYTARKLPRNFVVDYYETSSLCSQPAVVFQTKRSKQVCADPSESWVQEYVYDLELN
B2: CX3CL1, human; sequence looked up; chain QHHGVTKCNITCSKMTSKIPVALLIHYQQNQASCGKRAIILETRQHRLFCADPKEQWVKDAMQHLDRQAAALTRNGGTFEKQIGEVKPRTTPAAGGMDESVVLEPEATGESSSLEPTPSSQEAQRALGTSPELPTGVTGSSGTRLPPTPKAQDGGPVGTELFRVPPVSTAATWQSSAPHQPGPSLWAEAKTSEAPSTQDPSTQASTASSPAPEENAPSEGQRVWGQGQSPRPENSLEREEMGPVPAHTDAFQDWGPGSMAHVSVVPVSSEGTPSREPVASGSWTPKAEEPIHATMDPQRLGVLITPVPDAQAATRRQAVGLLAFLGLLFCLGVAMFTYQSLQGCPRKMAGEMAEGLRYIPRSCGSNSYVLVPV
For `B1 (CCL4)`, the Kd was 2.2 nM (US28 E13A; radioligand competition).
With `ecgonine` the Kd was 10000 to 100000 nM (monoclonal antibody; room temperature).
With `CCL3` the Kd was 3 nM (US28 T11A; radioligand competition).
`[3H]Neurotensin` gave a Kd of 9.8 nM (NTS receptor; radioligand binding; forebrain membranes).
The Kd of `CCL5` is reported as 2 nM (US28 T11A; radioligand competition).
`B2 (CX3CL1, human)` has a Kd of 0.5 nM (US28 F14A; radioligand competition).

Excerpt of the above (single results of other studies):
`B2 (CX3CL1, human)` has a Kd of 0.5 nM (US28 F14A; radioligand competition).
